Measured values gathered from unrelated publications.
Every numbered part comes from another study and shows a few of its results, in no order.

Study 1 — technique: protein binding microarray; form: double-stranded DNA, one strand shown; sample: in vitro; tested at: not given; reference: not given; direction: higher = stronger binding
Target: Histone acetyltransferase KAT6A, winged helix 2, GST fusion (KAT6A, Homo sapiens, UniProt Q92794, residues 85-181)
Setting: 8-mer, flanks averaged, mean of 2 arrays, mostly near background
Residues (chain): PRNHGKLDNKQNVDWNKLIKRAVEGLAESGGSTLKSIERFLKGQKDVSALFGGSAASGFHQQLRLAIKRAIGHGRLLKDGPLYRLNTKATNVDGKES
With `AATTACAA` the E-score was -0.179.
`ACATCTCT` gave an E-score of -0.228.
`ACAGTTGG` gave an E-score of -0.0341.
`ATCAACCG` has an E-score of -0.0237.
For `ACTGTCAA`, the E-score was -0.21.
For `GTTGCGGA`, the E-score was 0.0592.
For `CCCGATGC`, the E-score was 0.175.
`ACAGACTG` gave an E-score of -0.211.
With `ACACTACG` the E-score was -0.106.
With `ACAAAGCG` the E-score was 0.176.
The E-score of `AAAGGCGA` is reported as -0.00762.
For `CGGTCGCC`, the E-score was 0.103.
With `ACATCTAA` the E-score was -0.0971.
`CGTAGAGC` has an E-score of -0.069.
`GCTCACCA` has an E-score of 0.111.
The E-score of `AGACTAAA` is reported as -0.114.
For `AGTTACTC`, the E-score was 0.0788.
`CAGGACAC` gave an E-score of 0.0541.
With `CGTCCCCA` the E-score was -0.048.
`ACGTGACA` has an E-score of -0.218.
With `AACGCGCG` the E-score was 0.205.
`AGGTCTCA` has an E-score of -0.0377.
With `AGTTCGAT` the E-score was -0.0537.
With `AACCAGAC` the E-score was 0.01.
The E-score of `CTTAAGTA` is reported as -0.17.

Study 2 — technique: RNA Bind-n-Seq; form: RNA; sample: in vitro; tested at: 365 nM; reference: no-protein control; direction: higher = stronger binding
Target: RNA binding protein fox-1 homolog 2, RRM domain, GST-SBP tag (RBFOX2, Homo sapiens, UniProt O43251-10, residues 100-194)
Setting: natural RNA segment, single round, ends assumed
Shared flanks, not repeated: GGGAGUUCUACAGUCCGACGAUC … UGGAAUUCUCGGGUGCCAA
Residues (chain): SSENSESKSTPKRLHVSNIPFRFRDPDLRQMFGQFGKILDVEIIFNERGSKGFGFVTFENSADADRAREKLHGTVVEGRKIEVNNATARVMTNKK
`ACUCUGUCUCAAAAAAAAAACAAAACAAAAAAAACCUCUUUGCUGGUAUAUUUGAAGAGCUUGGGAUGGAUUUGACUAAAUCUGCCCCGAGGAGGGUGAACAAGGUGAUC` — result for “RBNS enrichment (R)”: 0.334.
`UCAUUACUGUUUGAUUGAAAAUAAUUUCAAGAUUCAAAAUCUCAUUGACUUCCCAAAUUUGUGUUUUUAAGAAGGCUUUGCUGCAAGCUACCAUUCCCAAUGGGGCAGUC`: “RBNS enrichment (R)” 0.752.
`CCUGUGUGUCACUUCCCUCACCUCACAGGCUGUGACCCUACCCUGGGUCCCUUGUACAUAACUCCUUGUGACAAAACCCUCUGGAAGUUCUGGACCCCAUUUUUGAUAGG`: “RBNS enrichment (R)” 0.387.
`AUAUGUAUGUAUAUACACACGUACAUACAUUCAUAUAUAUACAUAUAUACAUAAUGUGCUUAACCACUGCCUUUUAAAACUUUAAAUUAAAUAAAACAUUGGGGUUGAUU` — result for “RBNS enrichment (R)”: 0.396.
Under “RBNS enrichment (R)”, `CCCCUCCAUAGGGUCUUGCUGCCAGGGACAGGGAUGCUUUCCAGCCUGCAGCAACAGAACACUUGACCUUAAAAGUCUCUUCUGGUCUUUGGAUUAGAAAAGGCUUAUGU` is recorded as 0.304.
`UUGGGACCCGCUGGUGACAGUGGCUCAGAAGAGGGACAGAAAAGCCUUGGACUUAGAUCUGGGUUCUAACAGACUGAAUGUGCACCUUGGGUCUCAGACUCAGUUUCCCC`: “RBNS enrichment (R)” 0.263.
Under “RBNS enrichment (R)”, `CAGGACAGGCGUGAAGAUGGAGUCCUUGUCGCAGCUGGAGCCUUGCCUAGCUGGUGAUCACACAGCCUGGCCUGUACCUGCACCCCACUGGAUGGUGGUACAUGGUGGCA` is recorded as 0.395.
`UGCUUCCUAUGACUCCCUGGCUGCACAAGAAGAAAUUGUCUGUCUUCCAUAUAUGCUUCUAAGUAUCCUACCUCUUUGAAGAAAAGAUAGGGAUGGAGUGAGGUGACAGU`: “RBNS enrichment (R)” 0.235.

Study 3 — technique: universal PBM; form: double-stranded DNA, one strand shown; sample: in vitro; tested at: not given; direction: higher = stronger binding
Target: Sal-like protein 4, full length isoform B (SALL4, Homo sapiens, UniProt Q9UJQ4-2, residues 1-616)
Setting: 8-mer, flanks averaged, mean of replicates
The E-score of `ACGGTCCG` is reported as -0.247.
`AGTAAGAC` has an E-score of 0.00084.
`TTAAGAAA` has an E-score of 0.176.
The E-score of `GAACTGCC` is reported as -0.221.
With `GTTCCTAA` the E-score was -0.052.
With `AACTTGGA` the E-score was -0.0335.
`AGGATTCA` has an E-score of 0.134.
With `CCGTTCTA` the E-score was 0.0503.
`GCGTTACC` gave an E-score of -0.197.
`CGCCTCGC` gave an E-score of -0.291.
The E-score of `CGGGCATC` is reported as -0.323.
For `AAGCAAGG`, the E-score was -0.15.
The E-score of `CCAAGCCC` is reported as -0.219.
The E-score of `GCGAAGCC` is reported as -0.201.
The E-score of `CCTATACC` is reported as 0.0382.
`ATCGCTAC` gave an E-score of -0.0261.
With `ATCAGCGA` the E-score was -0.0531.
`CAGGAGAC` gave an E-score of -0.176.
For `ACCTTGGC`, the E-score was -0.215.
The E-score of `TTCTAAAA` is reported as 0.281.
With `AGAATCAT` the E-score was 0.295.
`CCCACCCC` gave an E-score of -0.113.
`AAACACAA` has an E-score of 0.274.
With `CTCGGAAG` the E-score was -0.181.
For `GGGACACA`, the E-score was -0.168.

Study 4 — technique: aptamer microarray, sandwich; form: DNA with 2'F-ANA; sample: in vitro; tested at: 200 nM; together with: Cy3 exosite-II aptamer, 400 nM; direction: higher = stronger binding; oligonucleotide: GGTTGGTGTGGTTGG
Target: Prothrombin, mature alpha-thrombin (F2, Homo sapiens, UniProt P00734)
Setting: whole 15-mer aptamer, many near background
`2'F-ANA at 2 3 8 14`: “mean fluorescence intensity” 465 a.u.
`2'F-ANA at 3 4 5 8 9 11 12 13 15`: “mean fluorescence intensity” 104 a.u.
Under “mean fluorescence intensity”, `2'F-ANA at 2 4 6 9 12 13` is recorded as 290 a.u.
For `2'F-ANA at 2 4 5 6 7 8 10 11 13 14`, “mean fluorescence intensity” read 58.6 a.u.
For `2'F-ANA at 1 5 7 8 9 10 11 14`, “mean fluorescence intensity” read 47.9 a.u.
`2'F-ANA at 1 2 5 6 8 9 10 11 12 14` — result for “mean fluorescence intensity”: 46.8 a.u.
`2'F-ANA at 1 3 4 5 6 7 10 12 14` — result for “mean fluorescence intensity”: 45.7 a.u.
Under “mean fluorescence intensity”, `2'F-ANA at 1 2 3 4 6 7 11 14 15` is recorded as 61.3 a.u.
Under “mean fluorescence intensity”, `2'F-ANA at 6 9 10 11 13 14` is recorded as 89.8 a.u.
`2'F-ANA at 1 2 4 5 8 15` — result for “mean fluorescence intensity”: 67.8 a.u.
`2'F-ANA at 3 4 8 14 15` — result for “mean fluorescence intensity”: 381 a.u.
For `2'F-ANA at 1 4 5 8 9 11 12 14`, “mean fluorescence intensity” read 50.7 a.u.
Under “mean fluorescence intensity”, `2'F-ANA at 2 3 9 12 13 15` is recorded as 878 a.u.
For `2'F-ANA at 5 6 9 10 11 13 15`, “mean fluorescence intensity” read 45.9 a.u.
`2'F-ANA at 2 4 5 6 7 11 13 14`: “mean fluorescence intensity” 49.3 a.u.
For `2'F-ANA at 1 2 5 7 8 10 13`, “mean fluorescence intensity” read 47.3 a.u.
Under “mean fluorescence intensity”, `2'F-ANA at 1 2 4 9 10 14 15` is recorded as 48.8 a.u.
For `2'F-ANA at 4 5 8 9 15`, “mean fluorescence intensity” read 92 a.u.
`2'F-ANA at 2 3 4 7 10 12 13 14`: “mean fluorescence intensity” 194 a.u.
For `2'F-ANA at 4 5 9 10 14`, “mean fluorescence intensity” read 60 a.u.
`2'F-ANA at 2 8 10 12`: “mean fluorescence intensity” 187 a.u.
`2'F-ANA at 1 3 4 7 8 12` — result for “mean fluorescence intensity”: 443 a.u.
For `2'F-ANA at 1 4 8 11 14 15`, “mean fluorescence intensity” read 177 a.u.
`2'F-ANA at 3 4 6 7 8 9 11`: “mean fluorescence intensity” 514 a.u.

Excerpt of the above (study 1):
The E-score of `AAAGGCGA` is reported as -0.00762.
For `CGGTCGCC`, the E-score was 0.103.
With `ACATCTAA` the E-score was -0.0971.
`CGTAGAGC` has an E-score of -0.069.
`GCTCACCA` has an E-score of 0.111.
The E-score of `AGACTAAA` is reported as -0.114.
For `AGTTACTC`, the E-score was 0.0788.
`CAGGACAC` gave an E-score of 0.0541.
With `CGTCCCCA` the E-score was -0.048.
`ACGTGACA` has an E-score of -0.218.
With `AACGCGCG` the E-score was 0.205.
`AGGTCTCA` has an E-score of -0.0377.
